# Measured values of several laboratories.
# Parts stem from different laboratories: compare values within a part only. Positions count from the first letter of the parent shown.

# Sample 1
# Target: RING finger protein unkempt homolog, zinc fingers 1-6, GST-SBP tag (UNK, Homo sapiens, UniProt Q9C0B0, residues 30-357)
# Method: RNA Bind-n-Seq
# Molecule type: RNA
# Matrix: in vitro
# Tested at: not given
# Notes: RNA with constant flanks, human-mouse chimeric sites, ends assumed
# Relative to: input RNA pool
# Reading: higher = stronger binding
# Shared flanks, not repeated: GGGAGUUCUACAGUCCGACGAUC … CAACAGAGGAUUGAGCAUCA
# Target sequence (chain): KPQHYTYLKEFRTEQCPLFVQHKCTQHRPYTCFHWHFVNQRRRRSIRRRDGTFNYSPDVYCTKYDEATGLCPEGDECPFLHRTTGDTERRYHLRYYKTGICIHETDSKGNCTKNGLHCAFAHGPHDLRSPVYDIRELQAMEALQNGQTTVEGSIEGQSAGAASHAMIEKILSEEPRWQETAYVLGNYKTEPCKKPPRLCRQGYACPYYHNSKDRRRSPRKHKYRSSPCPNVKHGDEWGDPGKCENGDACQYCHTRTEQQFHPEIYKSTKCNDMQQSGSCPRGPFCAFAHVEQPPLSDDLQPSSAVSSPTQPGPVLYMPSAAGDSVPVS
Sequence,bound/input enrichment [ratio]
UGUAACUCUUAUCUGUAAGGUUCCCCCCCCCUACUGUCAAAAAAUAUGCAUGUAUAGUAAUUAGGACUUCAUUCCUCCAUGUUUUCUUCCCUUAUCUUACUGUCAUUGUCCUUAAACCUU,3.42
UUGGAAGGACCAGAGCCUAAUCAACUGAAACCAUUAGUCAUACAGGCUAUGCCCACCCUAAUAGAAUUAAUGAAAGACCCCAGUGUAGUUGUUCGAGAUACAGCUGCGUGGACUGUGGGC,2.47
CUCAGAGAUGUGGCAUAUCAGUAUGUGAAAAAGGGGGCUCGUAUAUUUUUGGAAGGGAAAGUGGACUAUGGUGAAUACAUGGAUAAAAACAAUGUGAGGCGGCAAGCAACAACAAUCAUA,0.423
UCAUUUUGCUCGGGUUAUUCUUUCCUUUAGGAAAAGCCUAAAGAUUAGGUUGUAAGAAAAAUAGAAGCCAUGUUUCGAAGACCUGUGUUACAGGUAUUUCGUCAGUUUGUAAGACAUGAG,4.44
GUUCGGCUCUGGGAUCAUGCUACUAUGACAGAAGUGAAAUCUCUGAAUUUUAAUAUGUCUGUUAGUAGCAUGGAGUAUAUUCCUGAAGGAGAGAUUUUGGUUAUUACUUAUGGACGAUCU,0.327
GAGCGUCUUGCCCGCACUGGGAUCAUCGUGACCACUAGUGAGGCUGUUCUGCUUCAGCUGGUGGCUGACAAAGACCACCCGAAGUUCAAGGAAAUUCAGAAUCUAAUUAAGGCGAGUGCC,0.0721
GAGCCCAGCCGGCAGUUUGUAAAGGACUCAAUUCGGCUGGUUAAAAGAUGCACCAAACCUGAUAGAAAAGAAUUCCAGAAGAUUGCCAUGGCAACAGCUAUAGGAUUUGCUAUCAUGGGA,0.158
UUUGUAUUUAUGCUAAGCACACGUGCUGGUGGUCUGGGCAUCAAUCUUGCAACUGCUGAUGUAGUCAUUUUAUAUGAUUCUGAUUGGAAUCCGCAAGUUGAUCUUCAGGCUAUGGACCGU,0.175
AUAGAUGAAAUUGAUGUAGAUCAGGAAGGAAUUGCUGAAAUGAUCCUGGAUGAAAAUGCUAUUGCUCAGGUCCCACGCCCUGGAACGUCUUUGAAGCUCCCUGGCACUAACCAAACAGGA,0.556
UCUUUAAAAAAAAAAUUACCUUUUCUGACAGUGCUUUCCCUCCCAUAGAUCCACGUUCAAGCUCAAAGGCCAAAACUUCCGCAAACAGCUCAAACAUCUGAUGAAGAAAGAUUUCUGAGA,1.23
GGGUGGGUGGUCAUUGCCGUUUGAGCUGCUGAUUUUCAUGAGUCGCCUUCAAAACUCUCGUGUAGGGUUGACAAUGUAAGGGGUGGGGGGAUCCAGCUUAUUCUUUUAUUUUCAAGUCCA,0.425

# Sample 2
# Target: Histone acetyltransferase KAT6A, both winged helices, GST fusion (KAT6A, Homo sapiens, UniProt Q92794, residues 1-181)
# Method: protein binding microarray
# Molecule type: double-stranded DNA, one strand shown
# Matrix: in vitro
# Tested at: not given
# Notes: 8-mer, flanks averaged, mean of 2 arrays, mostly near background
# Relative to: not given
# Reading: higher = stronger binding
# Residues (chain): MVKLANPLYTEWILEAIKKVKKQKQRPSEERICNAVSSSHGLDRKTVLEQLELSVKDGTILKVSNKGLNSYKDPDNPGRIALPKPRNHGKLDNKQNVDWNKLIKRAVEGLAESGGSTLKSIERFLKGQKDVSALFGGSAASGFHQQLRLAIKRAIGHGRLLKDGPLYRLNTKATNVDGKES
Sequence,E-score
GACTTGGC,-0.233
ATCTGATC,-0.126
CTCGTTGA,0.00146
ACTATAGG,-0.0526
CTGACATC,-0.124
GATGCATC,-0.14
AGTCGACG,0.171
GACATATC,-0.0343
GAAACGGA,0.167
AAACGTTT,0.0476
TCGCGACA,0.221
CCTAACGC,0.16
CACCTAAC,-0.113
CAGCCCGG,0.188
CCCTAGGA,-0.282
GCAACCTA,-0.114
AGAACACC,0.0704
GTTCCATA,-0.0475
AAGCGGTA,0.14
AAGATCTT,-0.0652
CTGCCGAA,0.0374
ACGCTACG,0.107
GGAGTAAA,-0.167
CCGCGTCC,0.264
GATAGGAC,-0.0798

# Sample 3
# Target: ABI1, truncated, D143A, DHFR fusion (Arabidopsis thaliana)
# Method: DHFR PCA, deep sequencing
# Matrix: yeast
# Notes: methotrexate growth selection, single substitutions
# With: (+)-ABA 0.0091 µM
# Relative to: wild-type fitted maximum
# Reading: higher = stronger binding
# Parent: PYL1, truncated, DHFR fusion (Arabidopsis thaliana); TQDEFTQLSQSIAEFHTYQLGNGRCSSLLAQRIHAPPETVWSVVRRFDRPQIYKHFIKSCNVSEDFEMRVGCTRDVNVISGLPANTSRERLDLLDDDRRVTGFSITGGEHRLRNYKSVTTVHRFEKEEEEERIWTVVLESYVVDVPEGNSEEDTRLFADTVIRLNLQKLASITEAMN
Variant,relative binding score
L82F,78%
Y141C,5.3%
E147C,-0.0164%
L8Y,25.6%
A30L,12.1%
V118N,-3%
A175L,5.13%
R24T,8.61%
P37C,-1.58%
D75E,48.2%
L91Y,0.481%
H122W,1.41%
L164E,-3.89%
T120A,-4.75%
P146F,-2.68%
L112N,-7.67%
A35L,-1.03%
G21A,27.1%
L112V,2.67%
D65V,3.89%
D3W,20.2%

# Sample 4
# Target: Centromere-binding protein 1, full length, N-terminal tag (CBF1, Saccharomyces cerevisiae, UniProt P17106, residues 1-351)
# Sequence of UniProt P17106 (whole entry, looked up): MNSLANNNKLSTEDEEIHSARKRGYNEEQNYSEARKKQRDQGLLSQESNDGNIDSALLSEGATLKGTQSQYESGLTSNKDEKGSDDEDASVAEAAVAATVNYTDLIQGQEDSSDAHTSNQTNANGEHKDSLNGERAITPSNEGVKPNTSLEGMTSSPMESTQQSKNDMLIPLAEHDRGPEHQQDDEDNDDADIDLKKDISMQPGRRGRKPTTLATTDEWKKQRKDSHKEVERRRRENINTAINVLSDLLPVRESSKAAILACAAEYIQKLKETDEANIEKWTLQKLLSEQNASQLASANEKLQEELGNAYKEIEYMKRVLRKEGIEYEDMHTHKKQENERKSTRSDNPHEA
# Method: protein-binding microarray
# Molecule type: double-stranded DNA, one strand shown
# Matrix: in vitro
# Tested at: 0.8 µM
# Notes: whole 60-bp probe, no competitor
# Reading: higher = stronger binding
# Shared flanks, not repeated: … GTCTTGATTCGCTTGACGCTGCTG
Sequence,fluorescence intensity [a.u.]
GAATATGAATCCACGCACCTGATCTGGCTCTTATAG,1040
GAAATGCATAAGCATCACCTTGATCCATTTGCCTAG,511
CTAGCATCATGACTATTCGTGGTAGTCACGCATTTC,734
CTATGTCGGTCACGGTCCACCACCAATTGTGGCTTC,1580
CTACCATAACTGCACCACCAATATTTTTCTTGCTTC,537
CTATACCAACAGCACGGCATGATGACCCCAAACTTC,553
CTATGATCTCTTAATCAGGAGGCGATATATACCTTC,563
GAACAATTTTCTCATCACCCCGAAACAACAAAATAG,588
GAAACGTTTAATAACAGGGTGACGGAGCTTAAATAG,502
CTAAGAAGAAAAAAGCGCGTGGTACGAGCCGCGTTC,558
GAATTCTTCCTTCCTCTCGTGCTTGTTGCAAATTAG,583
CTAAGAGATAATACGCACGTGATGAAATTCATTTTC,10700
CTATTGAATCTCCGCTACGTCACATTTTCTACATTC,623
GAACCACTTTTTATTTTTGTCACGTAGTGCACTTAG,812
GAAACCTACGTATCTGATGTGTATACTTCTCTTTAG,481
GAACTTTTTACACCGCATGTGATAATATACTAGTAG,1610
CTATCGATCCCCCTCATCGTGATGTAGTCAACCTTC,520
CTAGCCTCAAAGAACCCCGTGTGCGGGTATGGCTTC,545
GAAGGTGCGAAATTTTACGTGATTCATTTTCTTTAG,571

# Sample 5
# Target: RNA binding protein fox-1 homolog 2, RRM domain, GST-SBP tag (RBFOX2, Homo sapiens, UniProt O43251-10, residues 100-194)
# Method: RNA Bind-n-Seq
# Molecule type: RNA
# Matrix: in vitro
# Tested at: 365 nM
# Notes: natural RNA segment, single round, ends assumed
# Relative to: no-protein control
# Reading: higher = stronger binding
# Shared flanks, not repeated: GGGAGUUCUACAGUCCGACGAUC … UGGAAUUCUCGGGUGCCAA
# Residues (chain): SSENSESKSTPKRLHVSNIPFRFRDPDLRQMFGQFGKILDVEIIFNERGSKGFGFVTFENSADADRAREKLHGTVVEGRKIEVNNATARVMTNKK
Sequence,RBNS enrichment (R)
AUAAAACAACAAAAUUAAUAAUGAAAUGGAGGGGAAUUCUAGAAUUAUAUGCUAAAUGCAUAUUUUAUGAUUUGCUGUAUUAACUGAUGAUAAAACUAAUGGCAGAAAAA,1.55
UUUUGUUUUUUUUUAAUGUGUCAACUUGGGCUCAGGCUGUAGUUGUGUUGCGUGCCUGCUUAGCAUAUACAAGGGCCUGGGACUGGGCCCCAGUAUGGAAGAAAGACUUA,7.45
UUUGUUUGUUUAAUAGCACAAAUGCUUAUUUGUUAUCCAAAAACAACCUCCUUCUUAUCUGUGAUAAAUCUAUAGAAAGAAUUUAGCUGCAAGUGGACAAAGGAACAAGC,0.463
UCAGACAUGCAUCUGUGAUGUUCAUAGCCUUGUUUCAGUUAUAAUAGUUGUCUUGUUUUUUUCUUAAUUGAUUUUGUUAAUAAUACCUUAACACAGGGUAGGAAGAAGUG,6.77
UAAAAGAUACAUUCUCAUUGUUUUCCAACAGUGAUGGCUUCCACAUAAGGUUAAACAAACUAGGUGCUUGUAAAUAAUUUAUUACAGUUUACUCUAUCGCAUUUCUGUAA,0.405
GUUAUACAUGGUUGGGGUUUAAAAGCACAAAGAGAAACCUCCCCCUCCUGGCUUUCGUGGCCAUCUUUGUCCAUCUUAGGUGGGGACUUGAUCUUAUUUAAGGUCUCCAA,0.217
AGAGGCAGGAUGUAAGACACACUGUGUUGCAUUCUUGCACAAGUCAUGAAAAUGGAGCCAGAGAGCCUGGACAUCAGGGACUUUUGCCCACAGCACAUGACACCGACAGC,0.193
UAAGCUUCAAAAUUAAUCAUUUAAAGUGUUUCUUUAAGAGAGCCAUGUUAGAGGCUCACACUUUAGCUUGAAAGGAGUUGAUGAAUUAAUUUUUUAAAGGGAACUUUUUA,1.13
CCAAUCAGUCAAAGGCAGCAAGCAGACAGACGCCAGGUAUUUGAAAGGUCUUCUACACAGAGGAUAUACAACUGUAUGUCUGGGUCAGACAGUCUGUCUAUGUGUGCAUG,0.944
CUAUCUCUUUGUCACUUGCUGGUACAGCUAGUUUGUUUCACUUGCACAUUUGUACAUAUAUCUAAUGUUUUCAAGUGCCUUACUUGUUUAAACUCUGACUUCAAAGGUUU,0.389
GUUUUGCAAAGAUUCAGAGAACUAAUUUUUCACUGGAUAAGACCUGAGUAACCCAGACCCCCCACCGUGGUUCUUUUCACAGCCCUCGACUUUGCACUUAAAAAGGGAUA,0.498
UGUGAACGUGUGAACGUUAACACUGUAGUUGCUAGAUCUUAAGCUGCUAAUUGUCGAGAGAGAAUUCAGUUGUGUGCUGUCUGGCUGCUGUGCCUUCUCAGCAGCACUUU,0.557
